Experimental data collected from several papers.
Compare with care: the assays were run in different laboratories. ± gives the spread as reported.
Organism: Plasmodium falciparum

| SMILES | test | test system | setting | EC50 |
| --- | --- | --- | --- | --- |
| CCc1nnc(Nc2ccnc3ccc(-c4ccc(S(=O)(=O)N5CCOCC5)cc4)cc23)s1 | parasite growth, SYBR Green | D6 |  | 890 nM |
| CCn1cc(C)c2c([C@H](O)c3cnc(C(F)(F)F)c(Cl)c3)n(C)nc2c1=O | parasite growth | 3D7 |  | 10 nM |
| CCN(c1ccc(C)cc1)c1ccc(NC(=O)CN(C)c2ccccc2N2CCCC2=O)cn1 | gametocyte viability, luciferase | stage II-III gametocytes | 48 h | 2 nM |
| N#Cc1cnc(Nc2ccnc3ccc(-c4ccc(S(=O)(=O)N5CCOCC5)cc4)cc23)cn1 | parasite growth, SYBR Green | D6 |  | 550 nM |
| CCn1cc(C2CC2)c2c(CN3CCC(C)(F)CC3)n(C)nc2c1=O | parasite growth | 3D7 |  | 20 nM |
| COCC(=O)N1CCC[C@H](C(=O)NCc2nc(-c3ccccc3C)cs2)C1 | SYBR Green growth | asexual blood-stage parasites, 3D7 | 72 h | > 5000 nM |
| CC[C@@](N)(c1cnc(C(F)(F)F)c(Cl)c1)c1c2ncn(C3CC3)c(=O)c2nn1C | parasite growth |  |  | 6.4 nM |
| N#Cc1ccc(-c2csc(CNC(=O)[C@H]3CCCN(C(=O)N4CCCO4)C3)n2)cc1 | SYBR Green growth | asexual blood-stage parasites, 3D7 | 72 h | 8.8 ± 1.9 nM |
| COc1ncc(Nc2ccnc3ccc(-c4ccc(S(=O)(=O)N5CCOCC5)cc4)cc23)cn1 | parasite growth, SYBR Green | D6 |  | 760 nM |
| CC1(C)CCC(C(=O)NCc2nc(-c3ccc(C#N)cc3)cs2)CN1C(=O)COCCF (racemic) | SYBR Green growth | asexual blood-stage parasites, 3D7 | 72 h | 91 ± 32 nM |
| Cc1cc(Nc2ccnc3ccc(-c4ccc(S(=O)(=O)N5CCOCC5)cc4)cc23)on1 | parasite growth, SYBR Green | W2 |  | 2300 nM |
| Cc1ccc(-c2csc(CNC(=O)[C@H]3CCCN(C(=O)COCC(F)(F)F)C3)n2)cn1 | parasite growth, SYBR Green | 3D7, asexual blood stage | 72 h | 3.9 ± 0.53 nM |
| Cc1noc(C)c1Nc1ccnc2ccc(-c3ccc(S(=O)(=O)N4CCOCC4)cc3)cc12 | parasite growth, SYBR Green | D6 |  | > 20000 nM |
| O=C(NCc1nc(-c2ccccc2)cs1)[C@H]1CCCN(C(=O)[C@@H]2CCCO2)C1 | SYBR Green growth | asexual blood-stage parasites, 3D7 | 72 h | > 5000 nM |
| Cn1nc2c(=O)n(CCC3CC3)ccc2c1Cc1ccc(C(F)(F)F)nc1 | parasite growth | 3D7 |  | 12600 nM |

Excerpt of the above:
| SMILES | test | test system | setting | EC50 |
| --- | --- | --- | --- | --- |
| Cc1cc(Nc2ccnc3ccc(-c4ccc(S(=O)(=O)N5CCOCC5)cc4)cc23)on1 | parasite growth, SYBR Green | W2 |  | 2300 nM |
| N#Cc1cnc(Nc2ccnc3ccc(-c4ccc(S(=O)(=O)N5CCOCC5)cc4)cc23)cn1 | parasite growth, SYBR Green | D6 |  | 550 nM |
